Measured values collected from several papers.
Lines come from different studies, so protocols differ. ± marks the error that the study gave.
XIAP BIR3: E3 ubiquitin-protein ligase XIAP, BIR3 (XIAP, Homo sapiens, UniProt P98170)
UniProt P98170, sequence (whole entry, unmodified, looked up): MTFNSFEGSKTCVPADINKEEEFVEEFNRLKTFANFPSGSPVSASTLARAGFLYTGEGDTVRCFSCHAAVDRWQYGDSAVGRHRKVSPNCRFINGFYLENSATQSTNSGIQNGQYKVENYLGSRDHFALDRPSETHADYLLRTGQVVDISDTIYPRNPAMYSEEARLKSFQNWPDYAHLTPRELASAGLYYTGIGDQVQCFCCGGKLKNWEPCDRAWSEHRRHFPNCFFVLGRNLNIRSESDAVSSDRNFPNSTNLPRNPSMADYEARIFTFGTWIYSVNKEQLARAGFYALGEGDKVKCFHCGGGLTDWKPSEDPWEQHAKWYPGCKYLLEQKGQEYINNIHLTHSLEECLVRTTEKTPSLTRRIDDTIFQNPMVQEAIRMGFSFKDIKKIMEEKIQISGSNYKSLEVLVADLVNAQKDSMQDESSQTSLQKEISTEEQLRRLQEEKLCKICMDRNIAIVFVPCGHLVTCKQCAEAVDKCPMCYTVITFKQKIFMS
XIAP BIR1 domain: E3 ubiquitin-protein ligase XIAP, BIR1 domain (XIAP, Homo sapiens, UniProt P98170)

CC(C)[C@H](NC(=O)[C@H](C)N)C(=O)N1CCC[C@H]1C(=O)N(C)[C@@H](Cc1ccccc1)C(N)=O
IC50 (XIAP BIR3; ligand displacement): 0.38 µM

CN[C@@H](C)C(=O)N[C@H]1CN(C(=O)Cc2ccccc2)CC[C@H]2CC[C@@H](C(=O)NCc3ccc(C(N)=O)cc3)N2C1=O
Ki (XIAP BIR3; ligand displacement, FP): 65.5 µM

N[C@H]1CCCCNC(=O)[C@H](Cc2ccccc2)NC(=O)[C@@H]2CCCN2C(=O)[C@@H](N)CCCCNC(=O)[C@H](Cc2ccccc2)NC(=O)[C@@H]2CCCN2C1=O
Ki (E3 ubiquitin-protein ligase XIAP, BIR2 (XIAP, Homo sapiens, UniProt P98170); ligand displacement, FP): > 100 µM

O=C(Nc1cccc(C(=O)Nc2ccc(S(=O)(=O)O)c3cccc(S(=O)(=O)O)c23)c1)Nc1cccc(C(=O)Nc2ccc(S(=O)(=O)O)c3cccc(S(=O)(=O)O)c23)c1
Kd (XIAP BIR1 domain; microscale thermophoresis; 24 °C): 11 ± 2 µM

CN[C@@H](C)C(=O)N[C@H]1CN(C(=O)Cc2ccccc2)CC[C@H]2CC[C@@H](C(=O)NCc3cccc(Br)c3)N2C1=O
Ki (XIAP BIR3; ligand displacement, FP): 1.05 µM

CC(C)[C@H](NC(=O)C(C)(C)N)C(=O)N1CCC[C@H]1C(=O)N[C@@H](Cc1ccccc1)C(N)=O
IC50 (XIAP BIR3; ligand displacement): > 1.6 µM

Cc1ccc(C(=O)Nc2ccc(S(=O)(=O)O)c3cccc(S(=O)(=O)O)c23)cc1NC(=O)c1cccc([N+](=O)[O-])c1
Kd (XIAP BIR1 domain; microscale thermophoresis; 24 °C): 525 ± 50 µM

CN[C@@H](C)C(=O)N[C@@H](CCCCN)C(=O)N1CCC[C@H]1C(=O)N[C@@H](Cc1ccccc1)C(=O)O
Ki (XIAP BIR3; ligand displacement, FP): 0.086 µM

CCc1ccc(CNC(=O)[C@@H]2CC[C@@H]3CCN(C(=O)Cc4ccccc4)C[C@H](NC(=O)[C@H](C)NC)C(=O)N32)cc1
Ki (XIAP BIR3; ligand displacement, FP): 2.32 µM

O=C(Nc1cccc(C(=O)Nc2ccc(S(=O)(=O)O)c3cc(S(=O)(=O)O)cc(S(=O)(=O)O)c23)c1)Nc1cccc(C(=O)Nc2ccc(S(=O)(=O)O)c3cc(S(=O)(=O)O)cc(S(=O)(=O)O)c23)c1
Kd (E3 ubiquitin-protein ligase XIAP, BIR1 domain (XIAP, Homo sapiens, UniProt P98170, R82S); microscale thermophoresis): 1790 ± 425 µM

CC(C)[C@@H](C(=O)N1CCC[C@H]1C(=O)N[C@@H](Cc1ccccc1)C(N)=O)N(C)C(=O)[C@H](C)N
IC50 (XIAP BIR3; ligand displacement): > 1.6 µM

CN[C@@H](C)C(=O)N[C@H]1CN(C(=O)Cc2ccccc2)CC[C@H]2CC[C@@H](C(=O)NCc3ccc(C(C)(C)C)cc3)N2C1=O
Ki (XIAP BIR3; ligand displacement, FP): 185 µM

For quick reference, copied from above:
N[C@H]1CCCCNC(=O)[C@H](Cc2ccccc2)NC(=O)[C@@H]2CCCN2C(=O)[C@@H](N)CCCCNC(=O)[C@H](Cc2ccccc2)NC(=O)[C@@H]2CCCN2C1=O
Ki (E3 ubiquitin-protein ligase XIAP, BIR2 (XIAP, Homo sapiens, UniProt P98170); ligand displacement, FP): > 100 µM
